Experimental data gathered from unrelated publications.
Compare with care: the assays were run in different laboratories. Several values in a cell are separate wells, animals, samples, runs or records. ± gives the spread as reported.

SMILES	assay	system	setting	how to read	measurement	value
CC[C@H](C)[C@@H]([C@@H](CC(=O)N1CCC[C@H]1[C@H](OC)[C@@H](C)C(=O)N[C@H](C)[C@@H](O)c1ccccc1)OC)N(C)C(=O)[C@@H](NC(=O)[C@H](C(C)C)N(C)C(=O)OCc1ccc(NC(=O)[C@H](CCCNC(N)=O)NC(=O)[C@@H](NC(=O)CCOCCOCCOCCOCCC(=O)N[C@@H]2CSSC[C@H](C(=O)O)NC(=O)CNC(=O)[C@@H](CCCNC(=N)N)NC(=O)CNC(=O)[C@@H](C(C)C)NC(=O)CNC(=O)[C@@H](C)NC(=O)[C@@H](CCCNC(=N)N)NC2=O)C(C)C)cc1)C(C)C	–	BALB/c mice, orthotopic 4T1.2 breast tumour	dose not given	baseline: PBS	primary tumour growth	decreased
Cc1n[nH]c2ccc(-c3cc(OC[C@@H](N)Cc4ccccc4)cnc3-c3ccoc3)cc12	kinase binding, competitor, MIB/MS competition, measured: IRE1	Candida albicans cell lysate	100 nM	baseline: DMSO	log2 fold change	-0.11
CO[C@H]1CC[C@H](N2C(=O)CNc3ncc(-c4ccc(C(C)(C)O)nc4)nc32)CC1	flow cytometry	stimulated monocytes, human, blood	60 mg single dose, 1.5 h, median	baseline: baseline	pAKT change from baseline	-40.2%
CC(C)NCC(O)c1ccc(O)c(O)c1 (centres unmarked)	–	ventricular cardiomyocytes, C57BL/6 mouse	dose not given, 0.612 s	–	sarcomere length	1.7 µm
CCN1[C@@H](C(=O)NC23CCC(C(=O)O)(CC2)CC3)[C@H](c2cccc(Cl)c2F)[C@]2(C(=O)Nc3cc(Cl)ccc32)C12CCCCC2	–	human, advanced solid tumours, TP53 wild type	dose not given, sample C patients, RECIST	–	disease control rate	84.6%
Cc1cnc(N2CC3(CCOCC3)C2)c(C(=O)Nc2ccc(C(=O)N3CCc4cc(C(=O)Nc5c(C)cccc5F)sc4-c4ccccc43)cc2)c1	–	human, RSV infection, nasal wash	dose not given, ITT-I population	baseline: placebo	inhibition of MPO AUC	-25%
CCN1CCN(Cc2ccc(Nc3ncc(F)c(-c4cc(F)c5nc6n(c5c4)[C@H](C)CCC6)n3)nc2)CC1	–	human advanced solid tumours	50 mg, phase Ia monotherapy RECIST 1.1	–	median progression-free survival	1.7 months
CC(C)(C)c1cc(C(C)(C)C(=O)O)c(O)cc1NC(=O)c1c[nH]c2ccccc2c1=O	–	rat colon ex vivo	10 µM, added: β3 antagonist SR59230A	baseline: vehicle	contraction amplitude change	2 fold
C[C@H]1C[C@H]2CSC(N)=N[C@@]2(c2nc(NC(=O)c3ccc(OC(F)F)cn3)cs2)CO1	measured: total Aβ	healthy adults, plasma	50 mg once daily, day 10	baseline: placebo	percent change from baseline	-65.3%
Cc1sc2c(c1C)C(c1ccc(Cl)cc1)=N[C@@H](CC(=O)NCCCCCCCCNC(=O)COc1cccc3c1C(=O)N(C1CCC(=O)NC1=O)C3=O)c1nnc(C)n1-2 (some centres unmarked)	flow cytometry	4T1 tumour-bearing mice	dose not given	–	IFN-γ+ CD8+ T cells	0.61% and 0.31% and 0.27%
NC(=O)c1cnc2[nH]ccc2c1N[C@@H]1[C@@H]2CC3C[C@H]1C[C@@](O)(C3)C2	flow cytometry, measured: CD4+ effector T cells	Japanese healthy subjects, peripheral blood	oral, 30 mg twice daily, day 4	–	change from baseline	-0.02%
CN(C)C(=O)Oc1cccc([N+](C)(C)C)c1	neuromuscular block reversal	rat	dose not given, 5 (unit not given), added: cisatracurium	baseline: T1 twitch	train-of-four ratio	22.4
Cc1cc(/C=C2\Oc3cc(OCC4CC4)ccc3C2=O)cc(C)c1OC(C)(C)C(=O)O	RT-PCR, measured: ACADL, CPT1α	db/db mice, MCD diet-fed, liver	30 mg/kg	baseline: model group	mRNA level	increased
O=C(/C=C/c1ccc(O)c(O)c1/C=C/c1ccc(O)c(O)c1)O[C@H](Cc1ccc(O)c(O)c1)C(=O)O	–	isolated myocardial tissue	1 µM	–	CPP	41.8 mmHg
COc1cccc(CC2NC(=O)CN(Cc3ccccc3)C2=O)c1I (centres unmarked)	electronic von Frey	rat spinal nerve ligation	intraperitoneal, 3 mg/kg, up to 3 h, added: gabapentin 30 mg/kg i.p.	–	mechanical paw withdrawal threshold	decreased
COc1cccc2c1C(=O)c1c(O)c3c(c(O)c1C2=O)C[C@@](O)(C(=O)CO)C[C@@H]3O[C@H]1C[C@H](N)[C@H](O)[C@H](C)O1	–	mouse, HeLa xenograft, tumour lysate	intravenous, 8 mg/kg three times	baseline: saline	caspase-3/7 activity	~2 fold
CN[C@@H]1COc2c(S(=O)(=O)NC(=O)Nc3c4c(cc5c3CCC5)CCC4)cnn2C1	measured: IL-1β	human participants, whole blood ex vivo	300 mg twice daily, multiple doses, 24 h, added: LPS/ATP	baseline: baseline	inhibition	95.7%
N#Cc1ccn2c(-c3ccncc3)c(-c3ccc(F)cc3)nc2c1	kinase binding, competitor, MIB/MS competition, measured: CKA2	Candida albicans cell lysate	10 µM	baseline: DMSO	log2 fold change	0.348
COc1ccccc1[C@H](Cn1c(=O)n(C(C)(C)C(=O)O)c(=O)c2c(C)c(-c3ncco3)sc21)OC1CCOCC1	[1-13C]acetate infusion, isotopomer analysis	overweight or obese healthy men, plasma VLDL-TG palmitate	oral, 20 mg single dose, 4 h post-dose, added: oral fructose	–	fractional hepatic DNL	8.44 % new palmitate

SMILES	assay	system	setting	how to read	measurement	value
COc1ccc(-c2cncc(N[C@@H](C)c3cccc(NC(=O)c4cncc(C)c4)c3)n2)cc1OC	measured: rno-miR-141-3p	rat SU5416/hypoxia model, lung	dose not given, unit not given	baseline: SU5416/hypoxia vehicle	delta delta Ct	-0.884
CC(CCc1ccc(O)cc1)NCCc1ccc(O)c(O)c1 (centres unmarked)	–	anaesthetised rat	intravenous infusion, 1 µg/kg/min for 15 min	baseline: baseline	dP/dtmax change	17.1%
Cc1cc([C@H]2C[C@H]3[C@@H](CF)SC(N)=N[C@@]3(c3ccc(F)cc3F)CO2)on1	measured: Aβx-42	Mus musculus wild-type, brain	subcutaneous, 30 mg/kg, 7 h	–	Aβ42 level	0.58 ng/g
Oc1ccc(Br)cc1C=NCCN1CCOCC1	superoxide scavenging	–	200 µM	–	inhibition	41.1%
c1ccc(-c2n[nH]cc2-c2ccnc3ccccc23)nc1	kinase binding, competitor, MIB/MS competition, measured: NIK1	Candida albicans cell lysate	1 µM	baseline: DMSO	log2 fold change	0.864
N=C(N)NCCC[C@H](NC(=O)[C@H](CCCNC(=N)N)NC(=O)[C@H](CCCCN)NC(=O)[C@H](CCC(N)=O)NC(=O)[C@H](CCCCN)NC(=O)[C@H](Cc1ccc(O)cc1)NC(=O)[C@@H](N)CCCCN)C(=O)N[C@@H](CO)C(=O)N[C@@H](Cc1ccc(O)cc1)C(=O)N[C@@H](CCCCN)C(=O)O	–	human, dentin hypersensitivity patients	topical to tooth, 10 µg/tooth repeated, day 36, phase 1/2a trial	direction not given	change in Schiff sensitivity score	-1.33 ± 0.52
NCC(=O)Nc1cncc(-c2nn3c(=O)cc(N4CCNCC4)nc3s2)c1	ADP-induced platelet aggregation, light transmission aggregometry	human, stable CAD on aspirin, platelets ex vivo	subcutaneous, 0.075 mg/kg, 5 min post-dose, added: ADP 20 µM	–	median inhibition	41.4%
OC(CCN1CCCCC1)(c1ccccc1)C1CC2C=CC1C2 (centres unmarked)	resting-state EEG	healthy elderly humans	oral, 2 mg, eyes closed, LS mean	baseline: baseline	change in EEG Alpha1-power Pz-O1	-13.4%
N#Cc1ccc2c(-c3ccncc3)c(-c3ccc(F)cc3)nn2c1	kinase binding, competitor, MIB/MS competition, measured: TOR1	Candida albicans cell lysate	100 nM	baseline: DMSO	log2 fold change	-0.881
CCc1cc(Cl)c(OC)c(C(=O)NC[C@@H]2CCCN2CC)c1O	–	CeA D2 receptor-positive neurons, mouse, central amygdala	i.p., 2 mg/kg	–	optogenetically evoked calcium signal	inhibited
O=C(O)CNC(=O)Cc1ccccc1	–	ventricular cardiomyocytes, C57BL/6 mouse	dose not given, 0.224 s	–	sarcomere length	1.63 µm
Cc1cn(-c2cc(NC(=O)c3ccc(C)c(Nc4nccc(-c5cccnc5)n4)c3)cc(C(F)(F)F)c2)cn1	measured: amyloid beta 40	human, cerebrospinal fluid	dose not given, 12 months versus baseline, unit not given	baseline: placebo	median difference in change	-407
Cc1ccc(C(=O)Nc2ccnc(S(N)(=O)=O)c2)c(N2CCCC(F)(F)CC2)n1	–	Macaca mulatta, C-nociceptors	intravenous, 0.6 mg/kg bolus then 0.8 mg/kg/h, 90 min	–	activity-dependent slowing	78.4 ± 5.18 % baseline
Cc1ccc([C@@H]2O[C@H](CO)[C@@H](O)[C@H](O)[C@H]2O)cc1Cc1ccc(-c2ccc(F)cc2)s1	–	Japanese type 2 diabetes patients	25 mg, day 16	baseline: day 0	change, mean 24 h, plasma glucose	-42 mg/dL
CC[C@@H](C)[C@@H](NC(=O)[C@@H](Cc1ccc(O)cc1)NC(=O)[C@H]1CCCN1C(=O)[C@@H](CCCNC(=N)N)NC(=O)[C@H](N)Cc1c[nH]cn1)C(=O)N[C@H](C)C(=O)N[C@H](Cc1c[nH]cn1)C(=O)N[C@H](CCCNC(=N)N)C(=O)N[C@@H](C(=O)N[C@H](Cc1ccc(O)cc1)C(=O)N[C@H](CO)C(=O)N[C@H](Cc1ccccc1)C(N)=O)C(C)C	ex vivo flow cytometry	B16 tumour-bearing mice, tumour-draining lymph node	dose not given	–	IFN-γ+ CD8+ T cell frequency	4.03% and 6.07% and 6.63% and 4.09% and 5.53%
CC[C@@H]1[C@H](F)C(=O)N[C@@H]1COc1nccc2cc(C(N)=O)c(OC)cc12	ATP-site probe binding, ActivX profiling, measured: PKD1, PKD2	THP-1 cell lysate	0.04 mM, Lys2 site	–	inhibition	-3.5%
Cc1cc([C@H]2C[C@H]3[C@@H](C)SC(N)=N[C@@]3(c3ccc(F)cc3F)CO2)on1	measured: Aβx-42	Mus musculus wild-type, brain	subcutaneous, 50 mg/kg, 1 h	–	Aβ42 level	0.3 ng/g
Cc1cc(F)cc2c(CCC(=O)N[C@@H]3C(=O)NC[C@H]3O)c(-c3ccc(F)cc3)[nH]c12	–	APOL1 G2 mice, IFNγ-induced	30 mg/kg twice daily, day 13	–	urine albumin/creatinine ratio	84.3 µg/mg and 63.8 µg/mg and 902 µg/mg and 197 µg/mg and 74.7 µg/mg and 386 µg/mg
CCCCC1(CCCC)CN(c2ccccc2)c2cc(SC)c(OCC(=O)N[C@@H](C(=O)NCC(=O)O)c3ccccc3)cc2S(=O)(=O)C1	measured: 7α-hydroxy-4-cholesten-3-one	human, plasma	15 mg once daily, day 11	–	plasma C4	70.5 ng/mL

A few entries again:
SMILES	assay	system	setting	how to read	measurement	value
CN(C)C(=O)Oc1cccc([N+](C)(C)C)c1	neuromuscular block reversal	rat	dose not given, 5 (unit not given), added: cisatracurium	baseline: T1 twitch	train-of-four ratio	22.4
Cc1cc([C@H]2C[C@H]3[C@@H](CF)SC(N)=N[C@@]3(c3ccc(F)cc3F)CO2)on1	measured: Aβx-42	Mus musculus wild-type, brain	subcutaneous, 30 mg/kg, 7 h	–	Aβ42 level	0.58 ng/g
CCN1CCN(Cc2ccc(Nc3ncc(F)c(-c4cc(F)c5nc6n(c5c4)[C@H](C)CCC6)n3)nc2)CC1	–	human advanced solid tumours	50 mg, phase Ia monotherapy RECIST 1.1	–	median progression-free survival	1.7 months
O=C(/C=C/c1ccc(O)c(O)c1/C=C/c1ccc(O)c(O)c1)O[C@H](Cc1ccc(O)c(O)c1)C(=O)O	–	isolated myocardial tissue	1 µM	–	CPP	41.8 mmHg
CC(C)(C)c1cc(C(C)(C)C(=O)O)c(O)cc1NC(=O)c1c[nH]c2ccccc2c1=O	–	rat colon ex vivo	10 µM, added: β3 antagonist SR59230A	baseline: vehicle	contraction amplitude change	2 fold
